Results from different studies.
Each numbered part is a random draw from the data of one study; scales do not carry over between parts. Positions count from the first letter of the parent shown.

Block 1
Target: Histone acetyltransferase KAT6A, winged helix 1, GST fusion (KAT6A, Homo sapiens, UniProt Q92794, residues 1-85)
Technique: protein binding microarray
Molecule type: double-stranded DNA, one strand shown
Sample: in vitro
Tested at: not given
Setting: 8-mer, flanks averaged, mean of 2 arrays, mostly near background
Baseline: not given
Reading: higher = stronger binding
Construct (chain): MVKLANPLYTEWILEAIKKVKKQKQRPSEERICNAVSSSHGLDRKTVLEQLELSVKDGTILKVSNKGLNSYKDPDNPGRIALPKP
Oligonucleotide	E-score
AGTAGGAC	-0.000985
ATTTCCGC	0.231
AAGCGCCG	0.433
GTAGATTA	0.0909
CGTTATTC	-0.0239
GCCCTTTA	0.0515
ATGTAGTC	-0.255
ATATGAAT	-0.106
GCTGGCTA	-0.166
AAACAATT	-0.0899
ACAGGGGC	-0.056
AATAACTC	-0.185
GATCGTAA	-0.102
ACGCGGAG	0.334
TAGCAGGA	-0.308
ACCGAGCA	-0.0101
GCTTATAC	0.107
AACCCGTC	0.376
TGATTACA	-0.092
ATTCAGGA	-0.12
AGACCCGC	0.326
GGAGTACC	0.0323
GCAATCAA	-0.206
CGTACTGC	0.17
ACAGTGGA	-0.143

Block 2
Target: CCNA2, cyclin fold, Cln2 fusion (human)
Technique: yeast growth competition, sequencing
Sample: yeast
Setting: strong parent motif
Baseline: not given
Reading: higher = stronger binding
Starting sequence: BRCA2 docking peptide (human); PSIKRNLLNEFDR; partner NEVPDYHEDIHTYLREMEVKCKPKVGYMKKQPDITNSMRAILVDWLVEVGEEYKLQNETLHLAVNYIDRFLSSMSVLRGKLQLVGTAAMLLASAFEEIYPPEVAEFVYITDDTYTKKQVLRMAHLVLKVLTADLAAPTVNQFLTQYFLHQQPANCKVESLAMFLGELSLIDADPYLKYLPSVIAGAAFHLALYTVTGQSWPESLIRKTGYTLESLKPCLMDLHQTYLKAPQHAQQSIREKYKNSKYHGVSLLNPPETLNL
Change	normalised enrichment score
K4I	2.62
N6Q	2.48
D12Y	4.44
L7W	0.84
S2T	5.24
P1N	5.59
S2C	4.36
K4Y	3.28
I3P	3.23
P1W	6.06
R5G	-0.961
E10R	0.888
P1Q	5.78
N9H	5.5
I3Y	5.5
R5P	0.605
P1H	6.39
F11K	0.0575
R5A L7A	-0.301
L8M	5.98
P1C	5.63
L7K	0.583
E10Q	2.38

Block 3
Target: Sal-like protein 4, full length isoform B (SALL4, Homo sapiens, UniProt Q9UJQ4-2, residues 1-616)
Technique: universal PBM
Molecule type: double-stranded DNA, one strand shown
Sample: in vitro
Tested at: not given
Setting: 8-mer, flanks averaged, mean of replicates
Reading: higher = stronger binding
Oligonucleotide	E-score
CTCTTATC	0.172
AAAATAAT	0.373
ATTTTGCA	0.317
CAGGGAAG	-0.199
ACTCCTTC	-0.125
GCTGAGCA	-0.203
CCCACCTC	-0.202
ACTTAAGA	0.176
TCGATAAA	0.286
GACTGACA	0.0355
GGGAACAC	-0.166
AAATCCCA	0.0999
CACAGCAC	-0.171
AACACAAG	0.0666
CCCGTTAC	0.0639
ATCCGTGA	-0.0602
GAACCACA	0.091
GCGCCCGC	-0.297
ACGGATGG	-0.0839
CCTGTCTA	0.0484
CCATCGTC	-0.165
AGCAAAGC	0.012
GAGCTACA	-0.0104

Block 4
Target: Fragile X messenger ribonucleoprotein 1, C-terminal low-complexity region (Fmr1, Mus musculus, UniProt P35922)
Technique: RNA Bind-n-Seq
Molecule type: RNA
Sample: in vitro
Tested at: 200 nM
Setting: whole 134-nt RNA, ends assumed
Added: 150 mM KCl
Baseline: input library
Reading: higher = stronger binding
Oligonucleotide	log2 enrichment
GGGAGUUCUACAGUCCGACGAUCGCAGGAAGUAAAAACAAAUGGAAAUGCUUCGGAUAGUGGCAGGGGUGGGGGUUGCUAAGGAAAGGGUGGGAUCGGAGUGGGUAAAGAGUUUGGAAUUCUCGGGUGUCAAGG	0.205
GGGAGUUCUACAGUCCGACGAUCUGGCCCUGGUGGCAUGCGGGGAGGAAGAGGUGGCCUCAUGGAUCGUGGUGGUCCCGUUGGAAUGUUCAGAGGUGGCCGUGGUGGAGACAGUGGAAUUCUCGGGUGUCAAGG	-0.0326
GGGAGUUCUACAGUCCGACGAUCGCAGGAAGUAAAAACAAAUGGAAAUGCUUCGGAUAGUGGCACGGGUGGGGGUUGCUAAGGAAAGGGUGGGAUGGGAGUGGGUAAAGAGUUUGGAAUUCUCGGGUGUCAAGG	0.332
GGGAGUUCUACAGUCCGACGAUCCAAGUCCUGUGCUACACAUCGUAUGUACCGAAUCGGGAGGGAAAAAGGGUUUGGGAAAGUAUUAUGUUACGCCGUUCGGAUCUGCACUUCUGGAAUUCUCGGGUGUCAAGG	0.862
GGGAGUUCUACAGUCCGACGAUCAGUCCUGUGCUACACAUCGUAUGUACCGAAUCGGGGUUUGGGGUGGGGUUUUUGGGGAAAGUAUUAUGUUACGCCGUUCGGAUCUGCACUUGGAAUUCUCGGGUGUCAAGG	0.863
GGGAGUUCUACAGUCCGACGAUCGUCCUGUGCUACACAUCGUAUGUACCGAAUCGGCCCCCGGGCCCCCGGGCCCCCGGGGAAAGUAUUAUGUUACGCCGUUCGGAUCUGCACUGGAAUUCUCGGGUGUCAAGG	-0.53
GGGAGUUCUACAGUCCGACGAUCCUGUGCUACACAUCGUAUGUACCGAAUCGGGAAAAAAAGGGAAAAAAAGGGAAAAAAAGGGAAAGUAUUAUGUUACGCCGUUCGGAUCUGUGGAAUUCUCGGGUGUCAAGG	-1.05
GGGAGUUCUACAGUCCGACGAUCAAGUCCUGUGCUACACAUCGUAUGUACCGAAUCGGGAAAAAGGGAAAGGGAAAGGGAAAGUAUUAUGUUACGCCGUUCGGAUCUGCACUUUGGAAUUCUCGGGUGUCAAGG	0.143
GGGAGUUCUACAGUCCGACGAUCAAGUCCUGUGCUACACAUCGUAUGUACCGAAUCGGGUUUGGGAAAAAGGGUUUGGGAAAGUAUUAUGUUACGCCGUUCGGAUCUGCACUUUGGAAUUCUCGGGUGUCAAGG	0.652

Block 5
Target: Prothrombin, mature alpha-thrombin (F2, Homo sapiens, UniProt P00734)
Technique: aptamer microarray, sandwich
Molecule type: DNA with 2'F-ANA
Sample: in vitro
Tested at: 200 nM
Setting: whole 15-mer aptamer, many near background
Added: Cy3 exosite-II aptamer, 400 nM
Reading: higher = stronger binding
Oligonucleotide: GGTTGGTGTGGTTGG
Modification	mean fluorescence intensity
2'F-ANA at 2 3 4 6 8 9 11 12 15	611 a.u.
2'F-ANA at 4 5 6 7 8 15	72.6 a.u.
2'F-ANA at 2 3 4 6 10 12	284 a.u.
2'F-ANA at 3 5 15	130 a.u.
2'F-ANA at 1 4 5 6 7 13	48.2 a.u.
2'F-ANA at 3 6 8 9 11	933 a.u.
2'F-ANA at 1 2 5 7 8 12 13 14	45.5 a.u.
2'F-ANA at 1 3 8 9 10 12 14	60 a.u.
2'F-ANA at 1 4 8 10 12 13 14 15	51.8 a.u.
2'F-ANA at 1 3 4 11 12 15	330 a.u.
2'F-ANA at 1 2 3 8 10 11 12 14 15	52.4 a.u.
2'F-ANA at 1 2 6 9 10 13 14	89.2 a.u.
2'F-ANA at 3 6 7 10 11 12 14 15	328 a.u.
2'F-ANA at 2 3 4 5 6 8 9 10 11 12 13 15	57.1 a.u.
2'F-ANA at 2 3 5 6 8 9 11 12	182 a.u.
2'F-ANA at 2 3 9 10 12 13 15	400 a.u.
2'F-ANA at 1 2 5 9 11 12 13 14 15	73.5 a.u.
2'F-ANA at 2 3 6 10 13 14 15	261 a.u.
2'F-ANA at 7 10 11 12 14 15	107 a.u.
2'F-ANA at 3 4 5 6 8 10	94.7 a.u.
2'F-ANA at 1 3 7 8 10 11 14	99.5 a.u.

Repeated from above (block 3):
Oligonucleotide	E-score
CCCACCTC	-0.202
ACTTAAGA	0.176
TCGATAAA	0.286
GACTGACA	0.0355
GGGAACAC	-0.166
AAATCCCA	0.0999
CACAGCAC	-0.171
AACACAAG	0.0666
CCCGTTAC	0.0639
ATCCGTGA	-0.0602
GAACCACA	0.091
GCGCCCGC	-0.297
ACGGATGG	-0.0839
CCTGTCTA	0.0484
CCATCGTC	-0.165
AGCAAAGC	0.012
GAGCTACA	-0.0104
